Measured values from different studies.
Each numbered part is a random draw from the data of one study; scales do not carry over between parts. Substitutions count along the parent as printed.
Sequence of UniProt P54753 (whole entry, looked up): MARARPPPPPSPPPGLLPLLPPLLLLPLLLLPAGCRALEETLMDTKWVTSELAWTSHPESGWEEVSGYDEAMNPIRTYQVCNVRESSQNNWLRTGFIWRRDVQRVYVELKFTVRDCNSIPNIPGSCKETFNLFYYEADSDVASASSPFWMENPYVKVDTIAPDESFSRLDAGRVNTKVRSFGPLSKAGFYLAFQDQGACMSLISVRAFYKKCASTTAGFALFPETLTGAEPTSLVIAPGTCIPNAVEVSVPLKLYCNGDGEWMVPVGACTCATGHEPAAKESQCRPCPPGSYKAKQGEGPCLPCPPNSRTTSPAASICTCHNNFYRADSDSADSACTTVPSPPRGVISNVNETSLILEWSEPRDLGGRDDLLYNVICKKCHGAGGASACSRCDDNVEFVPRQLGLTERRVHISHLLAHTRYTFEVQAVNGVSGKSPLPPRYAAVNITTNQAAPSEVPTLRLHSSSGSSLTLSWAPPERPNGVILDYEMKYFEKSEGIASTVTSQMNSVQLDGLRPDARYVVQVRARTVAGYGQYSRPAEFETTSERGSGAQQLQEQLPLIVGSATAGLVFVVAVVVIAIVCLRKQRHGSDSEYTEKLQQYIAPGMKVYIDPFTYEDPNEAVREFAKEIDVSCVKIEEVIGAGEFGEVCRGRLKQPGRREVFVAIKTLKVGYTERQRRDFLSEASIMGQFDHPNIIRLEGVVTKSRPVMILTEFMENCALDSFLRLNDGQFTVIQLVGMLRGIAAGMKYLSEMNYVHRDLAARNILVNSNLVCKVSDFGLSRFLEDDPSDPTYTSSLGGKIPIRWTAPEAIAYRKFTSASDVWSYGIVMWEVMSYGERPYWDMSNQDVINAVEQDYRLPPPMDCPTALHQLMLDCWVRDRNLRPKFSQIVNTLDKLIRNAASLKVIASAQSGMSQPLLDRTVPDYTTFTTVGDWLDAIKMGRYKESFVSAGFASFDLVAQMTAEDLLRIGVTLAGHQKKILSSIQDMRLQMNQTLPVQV

Block 1
Target: CEBPA, bZIP domain (human)
Technique: DHFR protein complementation
Medium: yeast
Setting: single substitutions, most at no-binding floor
Reference: wild-type JUN-FOS pair
Reading: higher = stronger binding
Endpoint: binding fitness
Parent: JUN, bZIP domain (human); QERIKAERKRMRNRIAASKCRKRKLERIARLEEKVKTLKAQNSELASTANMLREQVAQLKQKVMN; partner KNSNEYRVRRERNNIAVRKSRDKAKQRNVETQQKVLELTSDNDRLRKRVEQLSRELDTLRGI
Q55H: -1.48 natural log
K39T: -1.48 natural log
A46H: -1.49 natural log
Q55E: -1.47 natural log
E44A: -1.47 natural log
K36E: -1.42 natural log
M51V: -1.51 natural log
S43N: -1.53 natural log

Block 2
Target: Histone acetyltransferase KAT6A, winged helix 2, GST fusion (KAT6A, Homo sapiens, UniProt Q92794, residues 85-181)
Technique: protein binding microarray
Form: double-stranded DNA, one strand shown
Medium: in vitro
Tested at: not given
Setting: 8-mer, flanks averaged, mean of 2 arrays, mostly near background
Reference: not given
Reading: higher = stronger binding
Endpoint: E-score
Target sequence (chain): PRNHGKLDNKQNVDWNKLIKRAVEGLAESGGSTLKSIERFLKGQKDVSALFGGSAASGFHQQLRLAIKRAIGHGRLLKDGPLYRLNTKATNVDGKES
GATTGTCA: -0.0347
AAGCAATT: 0.131
CACGACCA: 0.0695
GGGATTTA: 0.00253
TAGTTCGA: -0.00609
ACTTAGAA: -0.109
TGGACACA: 0.0517
AACGGCGG: 0.0365

Further values, each from its own experiment
ERLIN1 (Homo sapiens, UniProt O75477)
interaction screen (ERLIN2 (Homo sapiens, UniProt O94905); cross-linking MS; hits only): cross-linked

O=c1cc(-c2cccc3c2Sc2ccccc2S3)oc(N2CCOCC2)c1
remaining activity (EPHB3 (Homo sapiens, UniProt P54753); enzyme activity, inhibitor; 0.5 µM; reference: control): 105%

SMC2 (Homo sapiens, UniProt O95347)
cross-linked residues (SMC4 (Homo sapiens, UniProt Q9NTJ3); cross-linking MS; cell fractions; together with: DHSO): E305 to D394

ALDH7A1 (Homo sapiens, UniProt P49419)
cross-linked residues (CACNA1B (Homo sapiens, UniProt Q00975); cross-linking MS; cell fractions; together with: DSSO): K109 to K158
